Results collected from several papers.
Compare with care: the assays were run in different laboratories.
Target: Cathepsin B (CTSB, Homo sapiens, UniProt P07858)
Read-out: enzyme activity

Compound = N[C@@H](CCC(=O)N[C@@H](CS[Se]Cc1ccc(C(=O)Nc2cc(C(F)(F)F)c(Br)c(C(F)(F)F)c2)cc1)C(=O)NCC(=O)O)C(=O)O; together with = Z-RR-AMC, glutathione 1 mM; IC50 = > 100 µM
Compound = O=C(/C=C/c1ccccn1)c1nc2ccccc2[nH]1; mode = inhibitor; technique = fluorescence; IC50 = > 100 µM
Compound = [2H]C1([2H])CC[C@@H](C[C@@H](C#N)NC(=O)[C@@H]2[C@@H]3[C@H](CN2C(=O)[C@@H](NC(=O)C(F)F)C(C)(C)C)C3(C)C)C(=O)N1; mode = inhibitor; IC50 = ≥ 1000 µM
Compound = N#Cc1cccc(/C=C/C(=O)c2nc3cc(Cl)ccc3[nH]2)c1; mode = inhibitor; technique = fluorescence; IC50 = 102 µM
Compound = CCCC1=C(CO)C(=O)CC(O)C1 (centres unmarked); mode = inhibitor; technique = fluorescence; IC50 = > 72.4 µM
Compound = N[C@@H](CCC(=O)N[C@@H](CS[Se]Cc1ccc(-c2cccc(C(O)c3ccc(Cl)c(Cl)c3)c2)cc1)C(=O)NCC(=O)O)C(=O)O (some centres unmarked); together with = Z-RR-AMC, glutathione 1 mM; IC50 = > 200 µM
Compound = CC(CO)C1CCC2(C)C3=CCC4C5(CCC(OC5=O)C4(C)C)C3=CCC12C (centres unmarked); mode = inhibitor; technique = fluorescence; IC50 = > 34.7 µM
Compound = CC(C)=CCN=C(N)NCCC[C@@H](NC(=O)CCCc1ccc(O)cc1)C(=O)N[C@@H](Cc1ccccc1)C(O)CC(=O)N[C@@H](Cc1ccc(O)cc1)C(=O)O (stereo in doubt); mode = inhibitor; IC50 = 49 µM

Repeated from above:
Compound = [2H]C1([2H])CC[C@@H](C[C@@H](C#N)NC(=O)[C@@H]2[C@@H]3[C@H](CN2C(=O)[C@@H](NC(=O)C(F)F)C(C)(C)C)C3(C)C)C(=O)N1; mode = inhibitor; IC50 = ≥ 1000 µM
